Results gathered from unrelated publications.
A part holds a random share of what one study measured. Substitutions count along the parent as printed.

Series 1
Target: Ras GTPase-activating protein-binding protein 1, RRM domain (G3BP1, Homo sapiens, UniProt Q13283)
Chain of UniProt Q13283 (whole entry, looked up): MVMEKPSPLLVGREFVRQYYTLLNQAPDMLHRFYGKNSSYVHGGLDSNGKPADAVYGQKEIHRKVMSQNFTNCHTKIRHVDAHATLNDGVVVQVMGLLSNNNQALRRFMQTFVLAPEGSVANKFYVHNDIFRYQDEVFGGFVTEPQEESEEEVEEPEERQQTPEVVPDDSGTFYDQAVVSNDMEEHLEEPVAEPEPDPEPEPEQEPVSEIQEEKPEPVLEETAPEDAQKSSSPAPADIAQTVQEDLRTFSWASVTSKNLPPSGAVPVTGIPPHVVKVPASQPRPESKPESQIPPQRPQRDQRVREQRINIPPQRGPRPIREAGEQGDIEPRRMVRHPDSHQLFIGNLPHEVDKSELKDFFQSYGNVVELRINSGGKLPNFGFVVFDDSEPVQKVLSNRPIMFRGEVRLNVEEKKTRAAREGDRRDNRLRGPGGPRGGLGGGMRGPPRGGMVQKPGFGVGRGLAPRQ
Technique: RNA Bind-n-Seq
Molecule type: RNA
Medium: in vitro
Tested at: 1 µM
Setting: whole 134-nt RNA, ends assumed
Added: 150 mM KCl
Reference: input library
Reading: higher = stronger binding
`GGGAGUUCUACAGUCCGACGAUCUGGCUGCAGGCGCACCCCGGCAGGAUUUUGCCUCCGCUGUCGCCCCCGCAGCACCGCUACUCGGAGGGCGAGCGGACCUCCCUGGAGAAGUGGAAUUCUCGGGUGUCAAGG` gave a log2 enrichment of -0.508.
`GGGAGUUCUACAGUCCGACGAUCAGUCCUGUGCUACACAUCGUAUGUACCGAAUCAAACCCAAAUUUAAAUUUUUUUAAAAAAGUAUUAUGUUACGCCGUUCGGAUCUGCACUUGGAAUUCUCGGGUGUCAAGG` gave a log2 enrichment of -0.843.
`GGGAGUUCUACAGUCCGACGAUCAAGUCCUGUGCUACACAUCGUAUGUACCGAAUCGGGUUUUUUUGGGUGGGUUUGGGAAAGUAUUAUGUUACGCCGUUCGGAUCUGCACUUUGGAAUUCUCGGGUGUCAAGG` gave a log2 enrichment of 0.366.
The log2 enrichment of `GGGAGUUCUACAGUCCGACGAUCACCAUGCAGGUGGGCAUCUUUGGGAAGUGGGGCAAGGGGCGGAUAGGGAGGGGGGUAACACUUUGGGAACAGGUGGUCCCAGGUCGUUUCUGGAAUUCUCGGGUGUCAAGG` is reported as 0.95.
`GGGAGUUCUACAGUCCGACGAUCCUCAAGUCCUGUGCUACACAUCGUAUGUACCGAAUCGGUGGUUUUUGGAAAGGAAAGUAUUAUGUUACGCCGUUCGGAUCUGCACUUCCAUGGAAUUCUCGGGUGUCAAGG` has a log2 enrichment of -0.211.
`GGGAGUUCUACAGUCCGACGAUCUAACUUUAGAGGAGGAUCUGAUGGAUAUGGCAGUGGACGUGGAUUUGGGGAUGGCUAUAAUGGGUAUGGAGGAGGAGCUGGAGGUGGCAAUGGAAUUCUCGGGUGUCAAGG` has a log2 enrichment of -0.268.

Series 2
Target: CCND2, cyclin fold, Cln2 fusion (human)
Technique: yeast growth competition, sequencing
Medium: yeast
Setting: weak parent motif
Reference: not given
Reading: higher = stronger binding
Starting sequence: BRCA2 docking peptide (human); PSIKRNLLNEFDR; partner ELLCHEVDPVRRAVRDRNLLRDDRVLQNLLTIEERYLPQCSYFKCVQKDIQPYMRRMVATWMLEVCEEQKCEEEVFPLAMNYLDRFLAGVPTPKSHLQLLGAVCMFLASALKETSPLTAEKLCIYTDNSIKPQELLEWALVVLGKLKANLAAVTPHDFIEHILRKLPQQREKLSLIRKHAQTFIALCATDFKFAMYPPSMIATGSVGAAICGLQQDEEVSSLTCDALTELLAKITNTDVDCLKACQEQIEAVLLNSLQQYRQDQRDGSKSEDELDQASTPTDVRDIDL
`R13P` — result for “normalised enrichment score”: 0.0478.
For `N6T`, “normalised enrichment score” read -0.13.
`R13M`: “normalised enrichment score” 0.197.
`S2M` — result for “normalised enrichment score”: 0.388.
`S2F` — result for “normalised enrichment score”: 0.223.

Series 3
Target: RING finger protein unkempt homolog, zinc fingers 1-6, GST-SBP tag (UNK, Homo sapiens, UniProt Q9C0B0, residues 30-357)
Chain of UniProt Q9C0B0 (30-357, looked up): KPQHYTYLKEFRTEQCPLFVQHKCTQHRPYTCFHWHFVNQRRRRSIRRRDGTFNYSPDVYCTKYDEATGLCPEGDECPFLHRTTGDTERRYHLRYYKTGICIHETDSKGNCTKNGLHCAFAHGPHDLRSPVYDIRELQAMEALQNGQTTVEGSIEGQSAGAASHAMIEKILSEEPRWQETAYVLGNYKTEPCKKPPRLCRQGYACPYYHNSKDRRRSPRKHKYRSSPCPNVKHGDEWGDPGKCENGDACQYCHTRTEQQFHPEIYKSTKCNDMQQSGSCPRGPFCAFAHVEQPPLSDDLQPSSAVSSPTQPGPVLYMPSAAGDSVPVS
Technique: RNA Bind-n-Seq
Molecule type: RNA
Medium: in vitro
Tested at: not given
Setting: RNA with constant flanks, human-mouse chimeric sites, ends assumed
Reference: input RNA pool
Reading: higher = stronger binding
For `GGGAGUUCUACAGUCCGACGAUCGUACUGCAGCAGCAGGGCAAGCUGCAGGAAGCUCUGAUGCAUUAUAAGGAGGCUAUUCGAAUCAGUCCUACCUUUGCUGAUGCCUACUCUAAUAUGGGAAACACUCUAAAGGAGAUGCAGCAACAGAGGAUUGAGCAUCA`, the bound/input enrichment was 0.221 ratio.
For `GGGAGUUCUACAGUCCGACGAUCGUGACUGACAUUAAAAUUUCCCCUCAGCAAAGAAGUGCAGUAGUCACAAUAAUCCCUUCUGUGGUGAGUGCCAGUCAGAUUGUGGAGCUGGUCCCAGACCUCAGUUUAGACAUGGGAACUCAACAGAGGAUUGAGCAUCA`, the bound/input enrichment was 0.336 ratio.
`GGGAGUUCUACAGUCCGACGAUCGUGACUGGUGUUAAGAUUUACCCUCAGAAAAGAACUGCAGUAGUCACCAUAAUUCCAUCUGUGGUGAGUGCCAGUCAGAUUGUGGAGCUGGUCCCAGACCUCAGUUUAGACAUGGGAACUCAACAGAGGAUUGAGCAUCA` gave a bound/input enrichment of 0.285 ratio.
`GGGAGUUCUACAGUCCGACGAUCCUGUGCGGGUGACUGUCCUGGAGUGGCUGGAGUUCCCGCCGGAGCGCGGCCAGACUAAUUUUAGAAAAUGCCAAGUAGGAAGUUUGUUGAGGGUGAAGUGGUCAGAGGUCGAUGGCCUGGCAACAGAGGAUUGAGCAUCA` gave a bound/input enrichment of 2.29 ratio.
With `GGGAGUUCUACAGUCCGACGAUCUGACAAGCACGAGCAUCAGCCAUGCCUUUCCUUGACAUACAGAAAAAGCUGGGCAUCAGCCUGGACCGGCACUUUAUGUUCCUAAGCGCAGAACAGCCCUACAAGAUCGCCGCUCGGUGCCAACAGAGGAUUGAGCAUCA` the bound/input enrichment was 0.109 ratio.
`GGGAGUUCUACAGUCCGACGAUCGGGACUGAUUCAUUCCAAGGACAGGCAACCCCAUUUGAUGCCUGGACUGAUGACAGUAUGGAAGGGCCUAGUCAAAAUGUUGAAGCUGAGUCAAUUCAGGAUGCCAUGAGUAUGGAAGAGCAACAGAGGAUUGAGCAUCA` gave a bound/input enrichment of 0.455 ratio.
For `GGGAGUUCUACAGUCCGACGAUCCGCUGGCCCAAGCUGAUGGACUCUGAUGGCCUCCAUCUCUCAGGCACGUUUGCCUUCUCUUAGUCCCUUCUGGGUUGAUGUUAUGAAUCUCAGUACUGUGGUUUGAAAGCACCAGCUUUGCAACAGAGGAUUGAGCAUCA`, the bound/input enrichment was 0.437 ratio.

Further values, each from its own experiment
With `PhoQ, residues 284 288 289 292 302 303 NLMGRA` the fold induction was 0.964 (PhoP, residues 12 14 15 18 19 NIMAP (Escherichia coli, UniProt P23836); Sort-seq, item: YFP reporter; E. coli; PhoQ-PhoP variant library, added: 10 µM Mg2+; reference: high Mg2+ state, higher = stronger signaling).

For quick reference, copied from above (series 2):
`R13M`: “normalised enrichment score” 0.197.
`S2F` — result for “normalised enrichment score”: 0.223.
